Published values of several laboratories.
Compare with care: the assays were run in different laboratories. ± marks the error that the study gave.
Organism: Salmonella typhimurium

| SMILES | assay | test system | setting | how to read | endpoint | value |
| --- | --- | --- | --- | --- | --- | --- |
| CN(N=O)c1ccc(F)cc1 | mutagenicity, Ames plate incorporation | TA1535 | 50 µg/plate, 3 d, without S9, methanol |  | revertant colonies per plate | 14.7 ± 4 |
| Cc1cc(C(=O)NC(C)(C)COc2cccc3c2C(N)=NS(=O)(=O)N3)cc(C)n1 | Ames test, initial | TA1537 | 15.0 µg/plate | relative to: solvent control | revertant ratio | 1 |
| O=[N+]([O-])c1ccc(N2CCC(NCCC(O)c3ccc(F)c4ccccc34)CC2)c(C(F)(F)F)c1 (stereo not shown) | SOS/umu test | TA1535/pSK1002 | 0.001 mg/mL, 4 h, with S9, lower range |  | survival | 89.5% |
| CC(=O)N1CCC(C(=O)N2CCN3C(=O)c4cc(-c5ccccc5)ccc4NC(=O)C3C2)CC1 (stereo not shown) |  | TA100 | 158 µg/plate, without S9 |  | revertants per plate | 93 |
| O=[N+]([O-])c1ccc(N2CCN(CCC(O)c3ccc(F)cc3)CC2)c(C(F)(F)F)c1 (stereo not shown) | SOS/umu test | TA1535/pSK1002 | 0.016 mg/mL, 4 h, with S9, full range |  | survival | 81.6% |
| COc1cccc(-c2n[nH]c(SCc3ccccn3)n2)c1OC | Ames test, plate incorporation | TA1537 | 2.0 mg/plate, without S9 |  | revertant colonies per plate | 3 |
| O=NN1CCN(C2CCCC2)CC1 | mutagenicity, Ames plate incorporation | TA1537 | 5000 µg/plate, 3 d, without S9, methanol |  | revertant colonies per plate | 10 ± 3 |
| O=[N+]([O-])c1ccc(NC2CCNCC2)c(C(F)(F)F)c1 | SOS response, SOS/umu test | TA1535/pSK1002, TGA medium | 0.5 mg/mL, 4 h, added: 10% rat liver S9 | relative to: untreated | induction factor | 0.7 |
| CNC(=O)c1c(N(C)N=O)ncn1C | mutagenicity, Ames plate incorporation | TA100 | 1500 µg/plate, without S9, methanol |  | revertant colonies per plate | 119 ± 4 |
| N#C[C@@]1(n2ccc(N)nc2=O)O[C@H](CO)[C@@H](O)[C@H]1O |  | TA98 | 50 µM, without S9 |  | viability | 85% |

Repeated from above:
| SMILES | assay | test system | setting | how to read | endpoint | value |
| --- | --- | --- | --- | --- | --- | --- |
| O=[N+]([O-])c1ccc(NC2CCNCC2)c(C(F)(F)F)c1 | SOS response, SOS/umu test | TA1535/pSK1002, TGA medium | 0.5 mg/mL, 4 h, added: 10% rat liver S9 | relative to: untreated | induction factor | 0.7 |
| CNC(=O)c1c(N(C)N=O)ncn1C | mutagenicity, Ames plate incorporation | TA100 | 1500 µg/plate, without S9, methanol |  | revertant colonies per plate | 119 ± 4 |
